Measured values from different studies.
Protocols differ between the studies behind these lines. ± marks the error that the study gave.

CCOc1cncc(-c2ccc(NC(=O)C3(c4ccnc(NS(=O)(=O)C5CC5)n4)CCOCC3)nc2)n1 — IC50 (MDA-MB-453; cell growth or viability, ATP luminescence; 72 h): 25 nM
O=C1/C(=N\c2ccc(Cl)cc2)c2ccccc2N1Cc1ccccc1 — IC50 (L02; cell growth or viability, MTT; 48 h): 46900 nM
COc1ccc(CC[C@H]2OC(=O)[C@@H]3CCCCN3C(=O)C(=O)C(C)(C)COC(=O)C=CCCN(C)C(=O)[C@H](Cc3ccccc3)NC(=O)[C@H](Cc3ccccc3)N(C)C(=O)[C@@H]3CCCN3C(=O)[C@H](CC(C)C)N(C)C(=O)CCC(=O)Nc3cccc2c3)cc1OC — IC50 (HUVEC; thymidine uptake, inhibitor): > 20000 nM
CCCc1cc2cc(-n3nc(CC)c4c3CC(C)(C)CC4=O)cc(N3CCC(O)CC3)c2c(=O)[nH]1 — IC50 (SK-OV-3; cell growth or viability, MTS): 3410 nM
COc1ccc(CC[C@H]2OC(=O)[C@@H]3CCCCN3C(=O)C(=O)C(C)(C)COC(=O)C=CCCN(C)C(=O)[C@H](CC(C)C)N(C)C(=O)[C@H]3CCCN3C(=O)[C@H](Cc3ccccc3)N(C)C(=O)[C@H](CCc3ccccc3)NC(=O)CCC(=O)Nc3cccc2c3)cc1OC — IC50 (HUVEC; thymidine uptake, inhibitor): > 20000 nM
C=CC(=O)N1CCCC(n2c(=O)c3ncccc3n(Cc3ccc(Oc4ccccc4)cc3)c2=O)C1 (stereo not drawn) — IC50 (HuT78; cell growth or viability, MTT; 72 h): 1500 nM
O=C1C2=Nc3ccccc3CN2C(=S)N1c1ccc([N+](=O)[O-])cc1 — IC50 (CCRF-CEM; resazurin; 72 h): 27800 ± 2600 nM
O=C(NCc1cc(F)cc(F)c1)[C@@]1(O)CCN(c2ccc3[nH]ccc3c2)C1=O — IC50 (RXF 631; colony formation): > 10000 nM
Cc1c(C)c2cccnc2c2ncccc12 — IC50 (L02; cell growth or viability, MTT; 48 h): > 50000 nM
O=C1C=CC2(Oc3cccc4cccc(c34)O2)c2ccccc21 — IC50 (MDA-MB-435; cell growth or viability, resazurin; 72 h): 2300 nM
CC[C@H](C)[C@H](NC(=O)C[C@H](CCCCN)NC(=O)[C@H](Cc1ccccc1)NC(=O)C[C@H](CC(C)C)NC(=O)CN)C(=O)N[C@H](C(=O)N[C@@H](CCCCN)CC(=O)N[C@@H](CCCCN)C(=O)N[C@H](CC(=O)N[C@@H](C)C(=O)N[C@@H](CCCCN)CC(=O)N[C@@H](CO)C(=O)N[C@@H](Cc1ccccc1)C(N)=O)[C@@H](C)CC)[C@@H](C)CC — IC50 (HUVEC; cytotoxicity): > 128 µg/mL
COc1ccc(CC[C@H]2OC(=O)[C@@H]3CCCCN3C(=O)C(=O)C(C)(C)COC(=O)C=CCCN(C)C(=O)[C@@H]3CCCN3C(=O)[C@@H](Cc3ccccc3)N(C)C(=O)[C@@H]3CCCN3C(=O)[C@H](CC(C)C)N(C)C(=O)CCC(=O)Nc3cccc2c3)cc1OC — IC50 (HUVEC; thymidine uptake, inhibitor): 5800 ± 900 nM
CNS(=O)(=O)Nc1nccc(Cc2c(C)c3ccc(Oc4ncccc4F)cc3oc2=O)c1F — IC50 (MDA-MB-453; cell viability; 7 days): 292 nM
N#Cc1c(N)nc2c(c1-c1ccc[nH]1)Cc1cc(O)ccc1-2 — IC50 (HuT78; cell growth or viability, ATP luminescence): 600 nM
CC(C)c1cccc(C(C)C)c1N1C(=O)C2=Nc3ccccc3CN2C1=S — IC50 (CCRF-CEM; cell growth or viability, resazurin; 72 h): 25100 nM
CN1CCC(N[C@H]2CCc3[nH]c4c(C(N)=O)ccc(-c5ccccc5Cl)c4c3C2)CC1 — IC50 (HGC-27; cell growth or viability): 1290 nM
COc1ccc(CC[C@H]2OC(=O)[C@@H]3CCCCN3C(=O)C(=O)C(C)(C)COC(=O)C=CCCN(C)C(=O)[C@H](CC(C)C)N(C)C(=O)[C@@H]3CCCN3C(=O)[C@H](Cc3ccccc3)N(C)C(=O)[C@@H](Cc3ccccc3)NC(=O)CCC(=O)Nc3cccc2c3)cc1OC — IC50 (HUVEC; thymidine uptake, inhibitor): > 20000 nM
COc1ccc(-c2csc(C(=O)NOCCCCCC(=O)NO)n2)cc1 — IC50 (neonatal foreskin fibroblasts; cytotoxicity, sulforhodamine B; 72 h): 460 nM
COc1ccc(CC[C@H]2OC(=O)[C@@H]3CCCCN3C(=O)C(=O)C(C)(C)COC(=O)C=CCCN(C)C(=O)[C@H](CC(C)C)N(C)C(=O)[C@H]3CCCN3C(=O)[C@H](Cc3ccccc3)N(C)C(=O)[C@H](CC3CCCCC3)NC(=O)CCC(=O)Nc3cccc2c3)cc1OC — IC50 (HUVEC; thymidine uptake, inhibitor): 112 ± 28 nM
Cc1c(C)c2cccnc2c2ncccc12.Cc1ccc2c(Cl)cc(Cl)c([O-])c2n1.Cc1ccc2c(Cl)cc(Cl)c([O-])c2n1.[Co+2] — IC50 (HL-7702 normal hepatocytes; cell viability, MTT; 48 h): 59000 ± 1030 nM
Cc1nc(Nc2ccc3c(c2)/C(=C/c2cn(C)c4ccccc24)C(=O)N3C)c2ccccc2n1 — IC50 (H22; cell growth or viability, MTT): 6930 nM
C[C@H](c1ccccc1)N1C(=O)C2=Nc3ccc(Br)cc3CN2C1=S — IC50 (CCRF-CEM; resazurin; 72 h): 480 ± 30 nM
COc1ccc(CN2C3(NC(c4ccc(OC)cc4)C24C(=O)Nc2ccccc24)C(=O)Nc2ccccc23)cc1 (stereo not drawn) — IC50 (L02; cell growth or viability, MTT; 48 h): > 100000 nM
CC(C)=CC1OC(C)(C)C2C=C3C(=O)C(Cl)=CC(O)C3C3C(O)C4OC4C(=O)C132 (stereo not drawn) — IC50 (SKGT4; cell growth or viability, MTS): 5900 nM
C[C@@H](c1cccc2ccccc12)N1C(=O)C2=Nc3ccccc3CN2C1=S — IC50 (CCRF-CEM; resazurin; 72 h): 190 ± 40 nM
Cc1ccc([N+](=O)[O-])cc1S(=O)(=O)N(C)/N=C/c1cnc2ccc(Br)cn12 — IC50 (SF-295; MTS; NCI60 panel): 141 nM
Clc1ccnc2c1ccc1c(Cl)ccnc12.[Co+2].[O-]c1c(Br)cc(Br)c2cccnc12.[O-]c1c(Br)cc(Br)c2cccnc12 — IC50 (HL-7702 normal hepatocytes; cell viability, MTT; 48 h): 60200 ± 1550 nM
O=C(O)C(CO)NCc1cc(Cl)c(OCc2cccc(-c3ccccc3)c2Br)cc1OCc1cccnc1 (stereo not drawn) — IC50 (human Hepatocyte; cell growth or viability, MTT): > 10000 nM
O=C1c2c(O)ccc(O)c2C(=O)c2c(NCCNCCO)ccc(NCCNCCO)c21 — IC50 (ARPE-19; cytotoxicity, CCK-8; 48 h): 31 ± 12 nM
COc1ccc(CC[C@H]2OC(=O)[C@@H]3CCCCN3C(=O)C(=O)C(C)(C)COC(=O)C=CCCN(C)C(=O)[C@H](Cc3ccccc3)N(C)C(=O)[C@H]3CCCN3C(=O)[C@H](C)N(C)C(=O)[C@H](Cc3ccccc3)NC(=O)CCC(=O)Nc3cccc2c3)cc1OC — IC50 (HUVEC; thymidine uptake, inhibitor): 737 ± 130 nM
Cn1ncc(-c2ccc3c(=O)[nH]nc(CN)c3c2)c1-c1c(F)c(Cl)cc(OC2CC2)c1C#N — IC50 (LN-229; cell viability, inhibitor, CellTiter-Glo; 120 h, baseline-subtracted): 470 nM
COc1ccc2c(c1)Cc1c-2nc(N)c(C#N)c1-c1ccc(CO)o1 — IC50 (HuT78; cell growth or viability, ATP luminescence): 53400 nM
Cc1c(CN(C)C(=O)/C=C/c2cnc3c(c2)CC(N)C(=O)N3)oc2ccccc12 (stereo not drawn) — IC50 (IMR-90; cell growth or viability, resazurin; 72 h): 52200 nM
Cc1ccc(CN2C(=O)/C(=N\c3ccc(Cl)cc3Br)c3ccccc32)cc1 — IC50 (L02; cell growth or viability, MTT; 48 h): 23100 nM
C[OH+][Cu-2]12[O]C(c3cn(-c4ccccc4)nc3-c3ccccc3)=N[N+]1=C(C)c1c(cc(C)oc1=O)[O]2 (stereo not drawn) — IC50 (Vero; cell growth or viability, MTT; 48 h): 59400 nM
COc1ccc(CC[C@H]2OC(=O)[C@@H]3CCCCN3C(=O)C(=O)C(C)(C)COC(=O)C=CCCN(C)C(=O)[C@H](CC(C)C)N(C)C(=O)[C@H]3CCCN3C(=O)[C@H](Cc3ccccc3)NC(=O)[C@H](Cc3ccccc3)NC(=O)CCC(=O)Nc3cccc2c3)cc1OC — IC50 (HUVEC; thymidine uptake, inhibitor): 182 ± 31 nM
Cc1sc2c(c1C)C(c1ccc(Cl)cc1)=N[C@@H](CC(=O)NCCN(C)CCCCNC(=O)CCCCOc1cccc3c1C(=O)N([C@H]1CCC(=O)NC1=O)C3=O)c1nnc(C)n1-2 — IC50 (MDA-MB-453; cell growth or viability, CCK-8; 72 h): 700 nM
COc1ccc(CC[C@H]2OC(=O)[C@@H]3CCCCN3C(=O)C(=O)C(C)(C)COC(=O)C=CCCN(C)C(=O)CNC(=O)[C@@H](Cc3ccccc3)N(C)C(=O)[C@@H]3CCCN3C(=O)[C@H](CC(C)C)N(C)C(=O)CCC(=O)Nc3cccc2c3)cc1OC — IC50 (HUVEC; thymidine uptake, inhibitor): 751 ± 139 nM
CC(C)c1ccc(N(C)c2ccc3c(c2)OCC[C@H]3CNc2cnccc2C(=O)O)cc1 — IC50 (COLO-829; cell growth or viability, ATP luminescence; 7 days): ≥ 10000 nM
CNC(=S)NN=Cc1ccc([N+](=O)[O-])o1 — IC50 (IMR-90; cell growth or viability, resazurin): > 100000 nM
CC1(C)CCC(CN2CCN(c3ccc(C(=O)NS(=O)(=O)c4ccc(NCC5CCOCC5)c([N+](=O)[O-])c4)c(Oc4cnc5[nH]ccc5c4)c3)CC2)=C(c2ccc(Cl)cc2)C1 — IC50 (RS4-11; annexin V positive cells, FACS; 4 h): 36 ± 10 nM
CC[C@H](C)[C@H](NC(=O)[C@H](CCCCN)NC(=O)[C@H](Cc1ccccc1)NC(=O)C[C@H](CC(C)C)NC(=O)CN)C(=O)N[C@H](CC(=O)N[C@@H](CCCCN)C(=O)N[C@@H](CCCCN)C(=O)N[C@H](CC(=O)N[C@@H](CC(C)C)C(=O)N[C@@H](CCCCN)C(=O)N[C@@H](CC(C)C)C(=O)N[C@H](CC(N)=O)Cc1ccccc1)[C@@H](C)CC)[C@@H](C)CC — IC50 (HUVEC; cytotoxicity): 4.3 µg/mL

Some of these lines once more:
CC1(C)CCC(CN2CCN(c3ccc(C(=O)NS(=O)(=O)c4ccc(NCC5CCOCC5)c([N+](=O)[O-])c4)c(Oc4cnc5[nH]ccc5c4)c3)CC2)=C(c2ccc(Cl)cc2)C1 — IC50 (RS4-11; annexin V positive cells, FACS; 4 h): 36 ± 10 nM
C=CC(=O)N1CCCC(n2c(=O)c3ncccc3n(Cc3ccc(Oc4ccccc4)cc3)c2=O)C1 (stereo not drawn) — IC50 (HuT78; cell growth or viability, MTT; 72 h): 1500 nM
COc1ccc(CC[C@H]2OC(=O)[C@@H]3CCCCN3C(=O)C(=O)C(C)(C)COC(=O)C=CCCN(C)C(=O)[C@@H]3CCCN3C(=O)[C@@H](Cc3ccccc3)N(C)C(=O)[C@@H]3CCCN3C(=O)[C@H](CC(C)C)N(C)C(=O)CCC(=O)Nc3cccc2c3)cc1OC — IC50 (HUVEC; thymidine uptake, inhibitor): 5800 ± 900 nM
Cc1sc2c(c1C)C(c1ccc(Cl)cc1)=N[C@@H](CC(=O)NCCN(C)CCCCNC(=O)CCCCOc1cccc3c1C(=O)N([C@H]1CCC(=O)NC1=O)C3=O)c1nnc(C)n1-2 — IC50 (MDA-MB-453; cell growth or viability, CCK-8; 72 h): 700 nM
O=C1/C(=N\c2ccc(Cl)cc2)c2ccccc2N1Cc1ccccc1 — IC50 (L02; cell growth or viability, MTT; 48 h): 46900 nM
